# Measurements gathered from unrelated publications.
# Numbered parts are unrelated; each lists some results of a single study. Changes are numbered by the printed parent chain.

# Block 1
# Target: UBE2W UBC core domain (UniProt Q96B02)
# Method: yeast two-hybrid
# Matrix: yeast
# Notes: mostly zero background
# Relative to: not given
# Direction: higher = stronger interaction
# B1: RNF150 RING domain (UniProt Q9ULK6); chain DKETESDFDNCAVCIEGYKPNDVVRILPCRHLFHKSCVDPWLLDHRTCPMCKMNILKALGIP
# B2: ANKIB1 RING domain (UniProt Q9P2G1); chain LSPGDLDTSLCDICMCSISVFEDPVDMPCGHDFCRGCWESFLNLKIQEGEAHNIFCPAYDCFQLVPVDIIE
# B3: TRIM55 RING domain (UniProt Q9BYV6); chain TMDNLEKQLICPICLEMFTKPVVILPCQHNLCRKCASDIFQASNPYLPTRGGTTMASGGRFRCPSCRHEVVLDRHG
# B4: RNF32 RING domain (UniProt Q9H0A6); chain SLLQGDSVQPCPICKEEFELRPQVLLSCSHVFHKACLQAFEKFTNKKTCPLCRKNQYQTRVIH
# B5: NSMCE1 RING domain (UniProt Q8WV22); chain RETYPDAVKICNICHSLLIQGQSCETCGIRMHLPCVAKYFQSNAEPRCPHCNDYWPHEIPKV
# B6: TRIM15 RING domain (UniProt Q9C019); chain SLKVVHELPACTLCAGPLEDAVTIPCGHTFCRLCLPALSQMGAQSSGKILLCPLCQEEEQAETPMA
# B7: UBE4A RING domain (UniProt Q14139); chain LQQQEEETYADACDEFLDPIMSTLMCDPVVLPSSRVTVDRSTIARHLLSDQTDPFNRSPLTMDQIRPNTELKEKIQRWLAERKQQKEQLE
# B8: RNF14 RING domain (UniProt Q9UBS8); chain IKCFNSKLFLCSICFCEKLGSECMYFLECRHVYCKACLKDYFEIQIRDGQVQCLNCPEPKCPSVATPGQVK
# B9: TRIM3 RING domain (UniProt O75382); chain VQPMDKQFLVCSICLDRYQCPKVLPCLHTFCERCLQNYIPAQSLTLSCPVCRQTSILPEQGV
# B10: RNF43 RING domain (UniProt Q68DV7); chain SGSSCSSAPVCAICLEEFSEGQELRVISCLHEFHRNCVDPWLHQHRTCPLCMFNITEGDSFS
# B11: RNF149 RING domain (UniProt Q8NC42); chain EKGIDVDAENCAVCIENFKVKDIIRILPCKHIFHRICIDPWLLDHRTCPMCKLDVIKALGYW
# B12: MSL2 RING domain (UniProt Q9HCI7); chain LLPYFRQSLSCCVCGHLLQDPIAPTNSTCQHYVCKTCKGKKMMMKPSCSWCKDYEQFEENKQ
# Construct (chain): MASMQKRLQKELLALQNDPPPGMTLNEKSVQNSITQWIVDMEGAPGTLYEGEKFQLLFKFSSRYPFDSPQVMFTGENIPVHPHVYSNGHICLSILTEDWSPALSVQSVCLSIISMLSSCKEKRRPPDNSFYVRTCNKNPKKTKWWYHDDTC
Sequence,lacZ reporter activity
B1 (RNF150 RING domain),8860
B2 (ANKIB1 RING domain),0
MANWVFCNRCFQPPHRTSCFSLTNCGHVYCDACLGKGKKNECLICKAPCRTVLLSK (RNF212 RING domain (UniProt Q495C1)),0
B3 (TRIM55 RING domain),0
B4 (RNF32 RING domain),0
KIKDLNEHIVCCLCAGYFVDATTITECLHTFCKSCIVKYLQTSKYCPMCNIKIHETQPLL (PCGF1 RING domain (UniProt Q9BSM1)),0
B5 (NSMCE1 RING domain),0
B6 (TRIM15 RING domain),0
B7 (UBE4A RING domain),0
ISNDSETLEECMVCSDMKRDTLFGPCGHIATCSLCSPRVKKCLICKEQVQSRTKIE (MIB1 RING domain (UniProt Q86YT6)),0
B8 (RNF14 RING domain),0
B9 (TRIM3 RING domain),0
B10 (RNF43 RING domain),0
B11 (RNF149 RING domain),0
B12 (MSL2 RING domain),0
FLKKLEQSFMCVCCQELVYQPVTTECFHNVCKDCLQRSFKAQVFSCPACRHDLGQNYIMI (UHRF2 RING domain (UniProt Q96PU4)),9620

# Block 2
# Target: Interferon regulatory factor 3, full length, phosphomimetic (IRF3, Homo sapiens, UniProt Q14653, residues 1-427, S386D/S396D/S398D/S402D/T404D/S405D)
# Method: protein-binding microarray
# Form: double-stranded DNA, one strand shown
# Matrix: in vitro
# Tested at: 2540 nM top
# Notes: 60-bp whole probe
# With: salmon DNA 0.4 mg/ml
# Relative to: random background probes
# Direction: higher = stronger binding
# Shared flanks, not repeated: GCCTAGCAC … GTGCTAGGTCTTGATTCGCTTGACGCTGCTG
# Construct (chain): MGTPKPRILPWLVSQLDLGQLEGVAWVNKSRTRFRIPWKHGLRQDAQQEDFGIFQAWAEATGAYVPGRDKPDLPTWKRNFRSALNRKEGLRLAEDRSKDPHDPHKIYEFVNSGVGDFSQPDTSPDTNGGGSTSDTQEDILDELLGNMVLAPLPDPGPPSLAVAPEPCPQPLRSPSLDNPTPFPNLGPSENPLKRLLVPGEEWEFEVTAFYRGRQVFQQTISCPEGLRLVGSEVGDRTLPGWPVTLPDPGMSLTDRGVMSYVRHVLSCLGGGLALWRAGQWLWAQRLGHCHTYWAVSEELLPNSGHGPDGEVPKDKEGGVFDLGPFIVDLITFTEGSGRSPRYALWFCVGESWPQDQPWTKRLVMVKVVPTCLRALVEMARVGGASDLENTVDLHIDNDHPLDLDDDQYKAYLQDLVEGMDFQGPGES
Strand,fitted relative affinity
TTAGATTCCAGTCTCGATTA,3.15 z-score
ATTGTCTTCCCCATCTTGTT,0.923 z-score
TCCATTATTGCTTCCTCTTT,0.918 z-score
GACGGTTTCAGTTCCGGGAC,6.18 z-score
TCAGGTATAAACTTGGGACT,-0.402 z-score
GACGAACTGAGTTTTGAGAC,0.0364 z-score
TTAGGTATCGGATTCGGTTA,5.27 z-score
TGAGGTTTCCTTCTCCTTTA,10.1 z-score

# Block 3
# Target: Centromere-binding protein 1, full length, His-tagged (CBF1, Saccharomyces cerevisiae, UniProt P17106, residues 1-351)
# Chain of UniProt P17106 (whole entry, looked up): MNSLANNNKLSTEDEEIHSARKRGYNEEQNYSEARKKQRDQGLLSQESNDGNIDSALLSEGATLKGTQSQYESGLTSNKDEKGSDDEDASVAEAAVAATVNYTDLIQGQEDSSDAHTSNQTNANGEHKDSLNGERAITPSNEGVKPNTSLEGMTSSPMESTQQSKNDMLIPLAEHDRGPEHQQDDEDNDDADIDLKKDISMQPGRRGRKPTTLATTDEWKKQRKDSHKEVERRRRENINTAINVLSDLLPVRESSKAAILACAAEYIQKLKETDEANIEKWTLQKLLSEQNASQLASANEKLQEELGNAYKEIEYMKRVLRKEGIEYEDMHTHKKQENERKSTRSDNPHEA
# Method: competition protein-binding microarray
# Form: double-stranded DNA, one strand shown
# Matrix: in vitro
# Tested at: 2 µM
# Notes: whole 60-bp probe, lowest competitor level
# With: Pho4 competitor, 0.05 µM
# Direction: higher = stronger binding
# Shared flanks, not repeated: … GTCTTGATTCGCTTGACGCTGCTG
Strand,fluorescence intensity [a.u.]
CTTCTGTAAATTTGTTGTGTGGGTGGACGCGCCCCG,103
TGCGCAACAACTTGCGTTGTGGGTGTATGTCTAGAA,65.4
AAAAAAAGAAGAGATAACGTGGGTACAGCTAAAAAA,106
CATACCCAACCTTGAACGGTGGGTGAAGATATTTGT,65.7
AAAGCGGTAATTTGTGATGTGGGTGCAGATATCTAT,74.7
CTTTCCCGATCTTGACTTGTGGGTGTAGCACATTTG,77.5
CACCTCCCCCTAAATCTCGTGATGGGAGTTTCAAGT,496
AAAGCGGTAATTTGTCACCGAACTTCACATATCTAT,81.5

# Single results of other studies
# Parent: viral docking peptide; KGVKRKLFAEDSS
Variant,target,test,test system,setting,how to read,measurement,value
KGVKWKLFAEDSS [R5W],"CCNE1, cyclin fold, Cln2 fusion (human)","yeast growth competition, sequencing",yeast,strong parent motif,"relative to: not given, higher = stronger binding",normalised enrichment score,0.246

# A few entries again (block 3):
Strand,fluorescence intensity [a.u.]
CTTCTGTAAATTTGTTGTGTGGGTGGACGCGCCCCG,103
TGCGCAACAACTTGCGTTGTGGGTGTATGTCTAGAA,65.4
AAAAAAAGAAGAGATAACGTGGGTACAGCTAAAAAA,106
CATACCCAACCTTGAACGGTGGGTGAAGATATTTGT,65.7
AAAGCGGTAATTTGTGATGTGGGTGCAGATATCTAT,74.7
